# Results of several laboratories.
# Every numbered part comes from another study and shows a few of its results, in no order. Changes are numbered by the printed parent chain.

# Block 1 — technique: protein binding microarray; molecule type: double-stranded DNA, one strand shown; sample: in vitro; concentration: not given; baseline: not given; reading: higher = stronger binding
# Target: Histone acetyltransferase KAT6A, winged helix 2, GST fusion (KAT6A, Homo sapiens, UniProt Q92794, residues 85-181)
# Setting: 8-mer, flanks averaged, mean of 2 arrays, mostly near background
# Construct (chain): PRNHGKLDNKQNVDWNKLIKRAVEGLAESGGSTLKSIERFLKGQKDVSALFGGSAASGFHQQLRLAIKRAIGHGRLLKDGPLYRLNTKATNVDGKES
Strand,E-score
AGCGATAT,0.0732
GTCTGCGA,0.059
AGATTAGA,0.044
GAGCCTGA,0.0417
ATGTTTGC,-0.12
CGTTATAC,-0.0362
CAACTATG,-0.0687
CGAAACAC,0.164
GTGGTTAA,-0.0352
GAGAGGTA,-0.123
GTGAAAAC,0.176
CGTTCGGA,0.129
AAACGGCA,0.045
GACATTAC,-0.0429
TAGGTTCA,0.0963
CTCTCACA,-0.0381
CAAAGGCA,0.111
AGCTGACG,0.07

# Block 2 — technique: DHFR PCA, dose-response; sample: yeast; added: (+)-ABA, dose series; reading: lower = more sensitive
# Target: ABI1, truncated, D143A, DHFR fusion (Arabidopsis thaliana, UniProt P49597)
# Setting: Hill fit, not affinity, not high confidence
# Parent: PYL1, truncated, DHFR fusion (Arabidopsis thaliana, UniProt Q8VZS8); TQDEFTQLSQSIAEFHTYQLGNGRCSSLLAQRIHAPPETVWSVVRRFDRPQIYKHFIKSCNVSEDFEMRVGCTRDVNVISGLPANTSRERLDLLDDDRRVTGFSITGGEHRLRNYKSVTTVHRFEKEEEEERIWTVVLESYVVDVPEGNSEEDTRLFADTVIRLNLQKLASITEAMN
Change,ABA EC50 [µM]
V44E,621
G81I,129
K54I,3.92
F56K,4.61
E128G,3.14
L166E,2.5
T120F,305
Y115G,0.0365
A170N,61.2
V121E,20.5
Q167Y,16.6
H110Q,660
D153W,1190
G102W,1.32
K54T,0.03
T119P,291
Q31D,709
T119G,9.72
T119E,775
F157H,470
L29P,0.613
L82F,0.481
V161Q,0.685
Y53E,2.37

# Block 3 — technique: universal PBM; molecule type: double-stranded DNA, one strand shown; sample: in vitro; concentration: not given; reading: higher = stronger binding
# Target: Sal-like protein 4, full length isoform B (SALL4, Homo sapiens, UniProt Q9UJQ4-2, residues 1-616)
# Setting: 8-mer, flanks averaged, mean of replicates
Strand,E-score
AGATAGGC,-0.0597
CCGGGGTA,-0.173
GAAGTATA,0.23
CGATTAAG,0.0487
GTTACTCA,0.158
AGCCCAGC,-0.362
AAGAGAGT,-0.132
ACCCCGAG,-0.166
CAACAAGA,0.0848
AACTCAAC,0.0851
ACGATAGT,0.15
ATGCCGGG,-0.324
AGTACACA,0.119
AACTCTGA,0.0469
ATTGCGAC,0.0425
AGACGATC,-0.265
CCTGTGAA,0.0189
CCTGTTAG,-0.0492
TCCTTGAA,0.0736
ATTCGCGC,-0.122
AGACCTTG,0.0162
ACAAACGG,-0.02
CCCAATGA,0.0698
CCTTTGAC,-0.00656
GAGAACTC,-0.162

# Block 4 — technique: RNA Bind-n-Seq; molecule type: RNA; sample: in vitro; concentration: not given; setting: RNA with constant flanks, ends assumed; baseline: input RNA pool; reading: higher = stronger binding
# Target: RING finger protein unkempt homolog, zinc fingers 1-6, GST-SBP tag (UNK, Homo sapiens, UniProt Q9C0B0, residues 30-357)
# All sequences stand within: GGGAGUUCUACAGUCCGACGAUC … CAACAGAGGAUUGAGCAUCA
# Target sequence (chain): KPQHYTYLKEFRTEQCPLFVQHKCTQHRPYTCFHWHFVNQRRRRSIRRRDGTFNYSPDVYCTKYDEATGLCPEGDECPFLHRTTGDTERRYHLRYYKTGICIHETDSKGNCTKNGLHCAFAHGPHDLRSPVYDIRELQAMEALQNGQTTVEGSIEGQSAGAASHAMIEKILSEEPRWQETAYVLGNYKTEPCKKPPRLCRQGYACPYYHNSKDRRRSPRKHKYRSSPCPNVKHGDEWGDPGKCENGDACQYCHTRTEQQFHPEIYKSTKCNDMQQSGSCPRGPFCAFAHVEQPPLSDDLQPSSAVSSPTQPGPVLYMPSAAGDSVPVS
Strand,bound/input enrichment
GAACAAGUAUGCCACAUCGAAGCAUGCUAAGAUCAGCACUCUACCACAGCUGAAUUCUGCACCCGUUCAAGAUUUAGCCAAGGCUGUGGCAAAGGUGUAACUUGUAAACUUGAGUUGGAG,0.172 ratio
UUAGAUUCUGGAAAAUUUCGAGUUUUAGGAUGCAUCUUGUCUGAAUUGAAACAGAAGGGUGACCGAGUUGUGUUAUUUAGCCAAUUUACCAUGAUGCUGGAUAUCUUAGAGGUUCUAUUA,1.01 ratio
AUUUAAAAUUCCAGUAGUUAUAUUUAAUGAUCUCACCCCUGAGUUUCUUUUUCAUUAAAGCCGCUUUCAUUUCUAUUAUUCCAAUUUACUGAUAUGAACAAAUAGAAGGUCCGUGUGAGC,10.4 ratio
AUUACAUUACAUGAAAUGGCAGAAACAGAUGAAGGAUGGUUGGAUGUUGUCCAGUCUUUAAUCCGAGUUAUUCCAUUGGAAGAUCCAUUGGGACCAGCUGUUAUAACCUUGUUACUAGAC,0.229 ratio
GUACUAUGUCAAAUCCUAUCUCAAUAAAUAGCAAUUCAUUUAACUCUCUUAGCUGCUUUUCCGGCCGAUAUGUCUUUGUGCCCACUUUAUACAAGAGGCAGCUAAAAGAGUAUAGCAGUA,12.4 ratio
UCGGUUUUACACUCGGGAAGCAUUAACAGUGAGACACUAUUGUUUUUCUACUUGUGUGUGCCGUACAGGAAUUAUUCAGAUGCCACGUUUGAAUAAUUCAGAGUGAUGUUAUCUGUGAUA,0.116 ratio
CUCAAGCUACCAAAAAGGAAGUGGCAAUAGAUUGACUCAGGAUGUCAGAGCUCGGGAUUUCCGCAUUACUGCGUAAAGACUUUUGAAGGGACAGAAGUGAAGAAAUAAGCUGCAAUUUUG,0.175 ratio
UUGUUACUGGUUUUCUUUUUUUUUAAUGCUUCUGUUUUUAUCUCGCAAGUUGAUAUUGUACUCCGAUCUUAGCCAAAAACUUUUAUCUCUGAGAAAAAGUUUAAUAAAAAUGUACUAAAC,1.96 ratio
AGCACCUACUGUGUUCUCAACACCGUGCCACCUAUAGAAGAUGAUCAUGGGAACAGCAACCGCCGUCAUGUAAAAAUCUUUUUACCGAAAAAGCUGCUUGAAUGUCUGCCGAAAUGUUCA,0.0869 ratio
AUCACUCUAAUUAAUUGUAAUCUGAAUAAAGUGUAACAAUUGUGUAGCCUUUUUGUAUAAAACCGACAAAUAGAAAAUGGUCCAAUUAGUUUCCUUUUUAAUAUGCUUAAAAUAAGCAGG,4.74 ratio
CUGGGGAGUGUCCAGGGUUGGACAAAGCUCCACAGUGACUCUUUACGUAUGGAUGGGGACACCGAUAAGUUUAUAUCUAGGUGAAUACUAACUUGUUCCUUACUAUGAAUUCUAAAGUAC,0.178 ratio

# Block 5 — target: CCNB3, cyclin fold, Cln2 fusion (human); technique: yeast growth competition, sequencing; sample: yeast; setting: weak parent motif; baseline: not given; reading: higher = stronger binding
# Parent: CENPC docking peptide (human); VKTKKRLNFDDKV
Change,normalised enrichment score
AKTKKRLNFDDKV [V1A],0.332
VKTKARANFDDKV [K5A L7A],0.18
VKTKKRLNADDKV [F9A],0.187
VKTKKRLNFDDAV [K12A],0.542
VKTKKRANFDDKV [L7A],0.21
VKTKKRLNLDDKV [F9L],0.0752
VKTKKRLNFDDKA [V13A],0.091
VKTKRRLNLDDKV [K5R F9L],0.144
VKTKARLNFDDKV [K5A],0.304
VKTKKRLNFDAKV [D11A],0.572

# Other studies, line by line
Substance,target,assay,system,conditions,scale,endpoint,value
"PhoQ, residues 284 288 289 292 302 303 TYGVAM","PhoP, residues 12 14 15 18 19 TQAIL (Escherichia coli, UniProt P23836)","Sort-seq, refers to: YFP reporter",E. coli,"PhoQ-PhoP variant library, added: 10 µM Mg2+","baseline: high Mg2+ state, higher = stronger signaling",fold induction,4.53
